{"data": "Measurements pooled from the literature", "note": "Each line is one published result; not all experiments were run side by side.", "UniProt O96017, sequence (whole entry, looked up)": "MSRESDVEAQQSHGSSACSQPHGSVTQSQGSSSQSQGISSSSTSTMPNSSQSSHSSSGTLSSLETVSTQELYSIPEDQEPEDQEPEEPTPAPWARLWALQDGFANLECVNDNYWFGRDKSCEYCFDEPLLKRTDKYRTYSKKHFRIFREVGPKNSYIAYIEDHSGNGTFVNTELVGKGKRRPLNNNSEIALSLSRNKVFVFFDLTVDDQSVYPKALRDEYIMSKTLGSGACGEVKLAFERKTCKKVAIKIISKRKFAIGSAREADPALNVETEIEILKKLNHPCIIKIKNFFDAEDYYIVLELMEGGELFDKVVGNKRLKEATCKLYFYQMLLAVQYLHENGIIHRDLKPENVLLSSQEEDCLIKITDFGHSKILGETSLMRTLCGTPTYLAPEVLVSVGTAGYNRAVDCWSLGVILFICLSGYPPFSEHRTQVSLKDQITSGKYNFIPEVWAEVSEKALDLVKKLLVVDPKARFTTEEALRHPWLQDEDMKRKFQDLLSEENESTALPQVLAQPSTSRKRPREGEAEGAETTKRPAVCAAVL"}
{"Structure (SMILES)": "CNc1ncc2c(/C=C/C(=O)N3CCC(OC)CC3)nn(Cc3cccc(C(F)(F)F)c3)c2n1", "target or system": "CHEK2 (Homo sapiens, UniProt O96017)", "assay": "enzyme activity, inhibitor, radiometric", "setting": "1 µM", "measurement": "remaining activity", "result": "109%"}
{"Structure (SMILES)": "Cn1nc2c(=O)n(C3CC3)cnc2c1[C@](O)(c1cnc(C(F)(F)F)c(Cl)c1)C(F)(F)F", "system": "Caco-2", "measurement": "Papp A→B", "result": "619 nm/s"}
{"Structure (SMILES)": "CC(C)NCC(O)COc1cccc2ccccc12 (stereo not drawn)", "system": "Caco-2", "setting": "10 µM, 2 h, pH 7.4", "measurement": "Papp A→B", "result": "212 nm/s"}
{"Structure (SMILES)": "CC(C)NCC(O)COc1cccc2ccccc12 (stereo not drawn)", "system": "Caco-2", "measurement": "Papp", "result": "430 nm/s"}
{"Structure (SMILES)": "O=c1cc(-c2ccc(O)c(O)c2)oc2cc(O)cc(O)c12", "system": "Caco-2", "setting": "100 µg/mL, 2 h", "measurement": "Papp B→A", "result": "42.2 nm/s"}
{"Structure (SMILES)": "CC(C)NCC(O)COc1cccc2ccccc12 (stereo not drawn)", "system": "Caco-2", "setting": "5 µM, 2 h", "measurement": "Papp B→A", "result": "132 nm/s"}
{"Structure (SMILES)": "Cc1nn(C2CC2)c(=O)c2nn(C)c(Cc3ccc(C(F)(F)F)c(C#N)c3)c12", "system": "Caco-2", "measurement": "Papp A→B", "result": "434 nm/s"}
{"Structure (SMILES)": "O=C(O)[C@H]1O[C@@H](Oc2cc3oc(-c4ccccc4)cc(=O)c3c(O)c2O)[C@H](O)[C@@H](O)[C@@H]1O", "system": "Caco-2", "setting": "100 µg/mL, 2 h", "measurement": "Papp B→A", "result": "32.4 nm/s"}
{"Structure (SMILES)": "Cn1nc2c(=O)n(C3CC3)ncc2c1[C@](O)(c1cnc(C(F)(F)F)c(Cl)c1)C(F)(F)F", "system": "Caco-2", "measurement": "Papp B→A", "result": "705 nm/s"}
{"Structure (SMILES)": "C[C@H]1O[C@@H](O[C@H]2[C@@H](O)C[C@H](O[C@H]3[C@@H](O)C[C@H](O[C@H]4CC[C@@]5(C)[C@H](CC[C@@H]6[C@@H]5C[C@@H](O)[C@]5(C)[C@@H](C7=CC(=O)OC7)CC[C@]65O)C4)O[C@@H]3C)O[C@@H]2C)C[C@H](O)[C@@H]1O", "system": "Caco-2", "setting": "5 µM, 1 h", "measurement": "Papp B→A", "result": "83 nm/s"}
{"Structure (SMILES)": "C[C@H]1O[C@@H](O[C@H]2[C@@H](O)C[C@H](O[C@H]3[C@@H](O)C[C@H](O[C@H]4CC[C@@]5(C)[C@H](CC[C@@H]6[C@@H]5C[C@@H](O)[C@]5(C)[C@@H](C7=CC(=O)OC7)CC[C@]65O)C4)O[C@@H]3C)O[C@@H]2C)C[C@H](O)[C@@H]1O", "system": "Caco-2", "setting": "5 µM, 2 h", "measurement": "Papp B→A", "result": "137 nm/s"}
{"Structure (SMILES)": "Cc1cc(C)c(CNC(=O)c2cc(Cl)c3c(c2C)O[C@@](C)([C@H]2CC[C@H](N(C)C)CC2)O3)c(=O)[nH]1", "system": "Caco-2", "setting": "20 µM", "measurement": "Papp B→A", "result": "197 nm/s"}
{"note": "Excerpt of the above:"}
{"Structure (SMILES)": "CNc1ncc2c(/C=C/C(=O)N3CCC(OC)CC3)nn(Cc3cccc(C(F)(F)F)c3)c2n1", "target or system": "CHEK2 (Homo sapiens, UniProt O96017)", "assay": "enzyme activity, inhibitor, radiometric", "setting": "1 µM", "measurement": "remaining activity", "result": "109%"}
{"Structure (SMILES)": "Cn1nc2c(=O)n(C3CC3)cnc2c1[C@](O)(c1cnc(C(F)(F)F)c(Cl)c1)C(F)(F)F", "system": "Caco-2", "measurement": "Papp A→B", "result": "619 nm/s"}
